Measurements pooled from the literature.
Each numbered part is a random draw from the data of one study; scales do not carry over between parts. Positions count from the first letter of the parent shown.

Study 1 — technique: RNA Bind-n-Seq; molecule type: RNA; medium: in vitro; tested at: 365 nM; reference: no-protein control; reading: higher = stronger binding; measurement: RBNS enrichment (R)
Target: RNA binding protein fox-1 homolog 2, RRM domain, GST-SBP tag (RBFOX2, Homo sapiens, UniProt O43251-10, residues 100-194)
Setting: natural RNA segment, single round, ends assumed
Residues (chain): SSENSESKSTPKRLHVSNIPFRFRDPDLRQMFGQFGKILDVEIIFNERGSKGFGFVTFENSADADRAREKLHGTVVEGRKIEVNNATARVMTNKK
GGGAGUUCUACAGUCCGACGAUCUAAAGAAAUGGGUUUAUUUUUCCAGCAUAAACCUCAGAAUUUAAGGAAAGAAAAUGAUGUCUGUUGUUAUAGUUCAUUGUUUUGCCUACUCAGCAGAAGUGAUGACUCUUUGGAAUUCUCGGGUGCCAA: 0.364
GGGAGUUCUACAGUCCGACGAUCUUACCCCCAGCUCAAGAUGGACAGGGUUCUUCUGGUCAUCUCCCUUCCACCUCUUCCACCCUCAUGGAUGCCUUCCAGAAGCUGUCUCCAACCAUGCACACCACAGAGAGUGGAAUUCUCGGGUGCCAA: 0.618
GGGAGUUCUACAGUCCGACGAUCGGGCACACGCCUCAGAGCUGCCACAUGCUAGGGACAAACGCUACUGCCACAGGAAAACAGUGGUAGCUUAGAGAGGGCUCAGAUCCCUGGGUGCCAGUUUUUUAAUCACUUGGAAUUCUCGGGUGCCAA: 0.464
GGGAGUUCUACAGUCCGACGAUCCUUGGAUGGUCUCUUGUCCCUGAAUUUCAUUGUAUCAUGCAUGGAGAGAAAUGUUUGUCUUUCUGUUGUCUAUACAUCAAAGAAGCCAUUAAAUUGUUUUAUUUCUCAAGUGGAAUUCUCGGGUGCCAA: 3.54
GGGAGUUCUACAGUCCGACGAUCCUGGUUGUAAAGAGUAAAACUGUAUCUUAGGAAACCAGUGUCACCUUUUUCACCUUUUAAUUUUAUAUUAUUUGUGUCAUACAUUUCCAGUAAUGGAAGUGUUAAUUUUAUGGAAUUCUCGGGUGCCAA: 0.302
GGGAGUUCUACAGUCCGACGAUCUUCUGUAACCCAGGCUGGUCUUUGCUUUUACUGAACAUCCAAACGUUAUUUAUAUUUUAAUUUUAUGUACUCAUUUCUUUUUGUUUUCCUCAAACAGCAUGUUGUUGUUGUGGAAUUCUCGGGUGCCAA: 4.13
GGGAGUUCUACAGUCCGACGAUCGGUGCUUGGGCCAGGUCUUCUCAAUGGAAGGGGAAUCCCUUAUAGGGGAGAGGGAACAGAGCCCAGUGAAAUGGCAGUCAGAAUGUUAACCCUGGAUCCAUCUCUAAGUAUGGAAUUCUCGGGUGCCAA: 0.267
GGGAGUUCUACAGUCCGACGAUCAAAUCUACGAUUUCUAAUUACCUGGAGUCAGCCCCCACUAGUCUGAGUACUUCGGCAAAUUCACUUUUUGUCUCACCUUCAUCAUAUGGCUCAGUGGUUAAGAGUACCUGUGGAAUUCUCGGGUGCCAA: 0.264
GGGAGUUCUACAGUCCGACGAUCUUCAUUUUCCUUUUUAAAAUUUGUCUUUUAAAUAAACAAACAGAACCCUCUGUGAGGUUGGUGAGAGAAGGGUGCCGUGCUCCUUCCCUGUGCUCUGCCUCUAAGGCUGAUGGAAUUCUCGGGUGCCAA: 0.31
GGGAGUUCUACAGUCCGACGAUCCUUACUGGGGAAGAGGAAGGACCAUUAGCACACCAUCAUGAUGUCAGAUGACAAAAUGGAAGCCAAGACACCUUGAAGGUGACUUUCUAGGAAGGUCUUAAGCAUGUAAUUGGAAUUCUCGGGUGCCAA: 3.2
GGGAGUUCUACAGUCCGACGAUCCCUAGGACAGUGUAAUACAUUUAUGUGAAGUAAAGACAUGCGAGACUGGUGGCCUGCAAAUAGCAUCCGUUGAUCUGUGUUAACUGCAUAGGGAGGGCUCUGCAUAGCACUGGAAUUCUCGGGUGCCAA: 1.05
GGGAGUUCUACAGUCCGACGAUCGCUUAGCUUCUCAAAGGCCUAGCAGAGCUUUGGCACCCCAAGAUCCUUUCUGUAGGCUAUUUCCUCUUGCCCAGCAGUGGAUGGAGCGUCCUUGCUAAAAAGGGUUCCAUUGGAAUUCUCGGGUGCCAA: 0.206

Study 2 — technique: RNA Bind-n-Seq; molecule type: RNA; medium: in vitro; tested at: 200 nM; setting: whole 134-nt RNA, ends assumed; with: 150 mM LiCl; reference: input library; reading: higher = stronger binding; measurement: log2 enrichment; library: 7-deaza-guanosine replaces G
Target: Ras GTPase-activating protein-binding protein 1, full length (G3BP1, Homo sapiens, UniProt Q13283)
UniProt Q13283, sequence (whole entry, looked up): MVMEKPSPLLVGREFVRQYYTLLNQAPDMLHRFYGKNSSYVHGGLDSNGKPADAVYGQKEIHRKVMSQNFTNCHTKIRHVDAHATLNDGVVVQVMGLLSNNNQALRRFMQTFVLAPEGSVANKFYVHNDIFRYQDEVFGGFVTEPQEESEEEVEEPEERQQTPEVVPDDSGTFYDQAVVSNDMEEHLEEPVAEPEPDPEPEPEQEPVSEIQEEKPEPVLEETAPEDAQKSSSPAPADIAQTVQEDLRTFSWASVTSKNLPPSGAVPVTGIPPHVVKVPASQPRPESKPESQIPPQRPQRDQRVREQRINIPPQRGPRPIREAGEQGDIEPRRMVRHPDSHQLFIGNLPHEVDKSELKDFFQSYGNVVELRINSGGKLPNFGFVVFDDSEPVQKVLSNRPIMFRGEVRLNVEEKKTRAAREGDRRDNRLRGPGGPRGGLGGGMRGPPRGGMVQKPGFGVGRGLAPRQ
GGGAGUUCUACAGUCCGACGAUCCCUGUGCUACACAUCGUAUGUACCGAAUCGGGGAAAAAGGGGUUUGGGGAAAAAAAGGGGAAAGUAUUAUGUUACGCCGUUCGGAUCUGCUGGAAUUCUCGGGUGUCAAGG: -0.566
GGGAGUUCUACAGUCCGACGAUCGUCCUGUGCUACACAUCGUAUGUACCGAAUCGGGUUUGGGUUUUUUUGGGAAAAAGGGAAAGUAUUAUGUUACGCCGUUCGGAUCUGCACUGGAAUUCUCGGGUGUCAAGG: -0.416
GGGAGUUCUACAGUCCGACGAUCUCAAGUCCUGUGCUACACAUCGUAUGUACCGAAUCGGGGAAGGGAAGGGGAAGGAAAGUAUUAUGUUACGCCGUUCGGAUCUGCACUUCCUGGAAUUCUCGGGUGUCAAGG: -0.638
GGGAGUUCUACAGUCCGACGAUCUUCUCUCUCUCCCUUUGCAGCCGCUGUACAACCAGCCCUCCGACACCCGGCAGUAUCAUGAGAACAUCAAAAUGUGAGUGCUCGCGGGCAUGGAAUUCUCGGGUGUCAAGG: 1.41
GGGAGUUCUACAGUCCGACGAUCCCUCAAGUCCUGUGCUACACAUCGUAUGUACCGAAUCGGGAAGGAAGGAAGGAAAGUAUUAUGUUACGCCGUUCGGAUCUGCACUUCCAGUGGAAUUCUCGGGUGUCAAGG: -0.329
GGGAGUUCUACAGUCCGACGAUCCCUCAAGUCCUGUGCUACACAUCGUAUGUACCGAAUCGGGAGGAGGGGAGGGGAAAGUAUUAUGUUACGCCGUUCGGAUCUGCACUUCCAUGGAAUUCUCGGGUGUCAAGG: 0.345
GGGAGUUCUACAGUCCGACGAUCCACAGACAACACGCACCCACACAGACACAGAGGGAAGGGGUUGGGAUGGGGACAGGGUGCACAGCAGGGCGGGGUAGGACCCCAGACCCUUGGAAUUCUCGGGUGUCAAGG: -1.64
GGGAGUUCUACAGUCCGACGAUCUGUGCUACACAUCGUAUGUACCGAAUCGGGGUUUUUUUGGGGAAAAAGGGGUUUUUUUGGGGAAAGUAUUAUGUUACGCCGUUCGGAUCUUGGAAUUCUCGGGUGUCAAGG: -1.02
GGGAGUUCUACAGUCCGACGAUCUGAUGGGACAACACCCGAAAGGAUAGCACAAAUAACAGGACCUCCAGACCGAUGUCAACAUGCUGCAGAAAUUAUUACAGACCUUCUUCGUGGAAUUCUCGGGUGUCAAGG: 0.917
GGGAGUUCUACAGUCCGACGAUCGCAGGAAGUAAAAACAAAUGGAAAUGCUUCGGAUAGUGGCAGGGGUGGGGGUUGCUAACGAAAGGGUGGGAUGGGAGUGGGUAAAGAGUUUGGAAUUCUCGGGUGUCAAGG: -0.256
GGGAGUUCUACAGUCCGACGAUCGCUGUGACCCCAACGCCGGUGCCCGUGGUCGGGAGCCAGAUGACCAGACAAGCCCGGCGCCUCUACGUGGGCAACAUCCCCUUUGGCAUCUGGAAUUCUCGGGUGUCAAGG: 0.661

Study 3 — technique: DHFR PCA, deep sequencing; medium: yeast; with: (+)-ABA 200 µM; reference: wild-type fitted maximum; reading: higher = stronger binding; measurement: relative binding score
Target: ABI1, truncated, D143A, DHFR fusion (Arabidopsis thaliana)
Setting: methotrexate growth selection, single substitutions
Parent: PYL1, truncated, DHFR fusion (Arabidopsis thaliana); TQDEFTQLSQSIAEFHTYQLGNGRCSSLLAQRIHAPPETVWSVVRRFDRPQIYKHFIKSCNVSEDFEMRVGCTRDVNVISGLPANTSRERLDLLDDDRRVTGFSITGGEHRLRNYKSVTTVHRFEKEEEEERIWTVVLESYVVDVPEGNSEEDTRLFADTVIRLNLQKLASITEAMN
F157M: 83%
S27F: 35.1%
E4W: 91.6%
G21M: 102%
S140G: 24.9%
R74K: 1.08%
S150N: 90.6%
Q19R: 100%
F15R: 65.4%
E139K: 48.2%
S11W: 95.6%
H110C: 34%
H16V: -7.8%
D3T: 101%
E131F: 99.6%
Q2K: 104%
S104P: -7.86%
L156R: 82%
T135R: -5.23%
E38W: 89.3%
D48P: 32.1%
I52L: 100%
G21D: 96.9%
R123A: 107%
T154W: -5.26%

Study 4 — technique: aptamer microarray, sandwich; molecule type: DNA with 2'F-ANA; medium: in vitro; tested at: 200 nM; with: Cy3 exosite-II aptamer, 400 nM; reading: higher = stronger binding; measurement: mean fluorescence intensity; strand: GGTTGGTGTGGTTGG
Target: Prothrombin, mature alpha-thrombin (F2, Homo sapiens, UniProt P00734)
Setting: whole 15-mer aptamer, many near background
2'F-ANA at 1 2 3 6 7 11 14 15: 61 a.u.
2'F-ANA at 2 4 5 6 8 10 13 14: 47.5 a.u.
2'F-ANA at 1 3 5 8 10 11 12 13: 48.7 a.u.
2'F-ANA at 1 2 7 9 10 12 14: 45.7 a.u.
2'F-ANA at 1 3 8 11 15: 297 a.u.
2'F-ANA at 1 11 12 13 14 15: 68.2 a.u.
2'F-ANA at 1 3 5 7 8 11 12: 111 a.u.
2'F-ANA at 1 2 3 4 5 6 8 9 11 12 14 15: 66.7 a.u.
2'F-ANA at 1 2 3 5 6 7 8 9 12 13 14: 55.5 a.u.
2'F-ANA at 1 3 5 6 7 9 14: 95.4 a.u.
2'F-ANA at 5 13: 56.3 a.u.
2'F-ANA at 2 3 5 6 8 10 11 13 14: 48.3 a.u.
2'F-ANA at 1 5 6 12 14: 45.8 a.u.
2'F-ANA at 1 4 7 8 9 10 12: 57.8 a.u.
2'F-ANA at 1 6 9 10 11 13 14 15: 79.3 a.u.
2'F-ANA at 1 3 6 7 9 11 12: 368 a.u.
2'F-ANA at 3 4 5 6 8 10 11 12 13 15: 61 a.u.
2'F-ANA at 1 7 9 10 14: 44.4 a.u.
2'F-ANA at 1 2 3 5: 59.5 a.u.
2'F-ANA at 2 3 4 9 10 11 12 15: 267 a.u.
2'F-ANA at 6 8 11 12 15: 702 a.u.
2'F-ANA at 2 4 7 10 13 15: 183 a.u.
2'F-ANA at 2 3 6 10 11 12 13 15: 342 a.u.
2'F-ANA at 1 3 4 5 9 10 13 14: 45.8 a.u.
2'F-ANA at 2 3 5 6 7 8 9 10 11 12 15: 61.6 a.u.

Repeated from above (study 3):
D48P: 32.1%
S150N: 90.6%
T135R: -5.23%
S27F: 35.1%
E139K: 48.2%
T154W: -5.26%
E38W: 89.3%
S11W: 95.6%
